Measured values pooled from the literature.
A part holds a random share of what one study measured.

Series 1 — method: protein binding microarray; molecule type: double-stranded DNA, one strand shown; matrix: in vitro; tested at: not given; baseline: not given; reading: higher = stronger binding
Target: Histone acetyltransferase KAT6A, both winged helices, GST fusion (KAT6A, Homo sapiens, UniProt Q92794, residues 1-181)
Setting: 8-mer, flanks averaged, mean of 2 arrays, mostly near background
Target sequence (chain): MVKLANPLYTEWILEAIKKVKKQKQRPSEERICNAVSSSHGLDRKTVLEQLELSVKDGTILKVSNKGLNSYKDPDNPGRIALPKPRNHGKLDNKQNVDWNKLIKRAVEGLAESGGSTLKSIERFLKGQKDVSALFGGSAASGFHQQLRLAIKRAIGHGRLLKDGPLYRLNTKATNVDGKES
| Oligonucleotide | E-score |
| --- | --- |
| AAATCTGT | -0.207 |
| ACTTCGCT | -0.0751 |
| AACAGGTG | -0.196 |
| ATAGGATA | -0.012 |
| CACGACGG | 0.215 |
| CTGTAACA | -0.141 |

Series 2 — method: aptamer microarray, sandwich; molecule type: DNA with 2'F-ANA; matrix: in vitro; tested at: 200 nM; added: Cy3 exosite-II aptamer, 400 nM; reading: higher = stronger binding; oligonucleotide: GGTTGGTGTGGTTGG
Target: Prothrombin, mature alpha-thrombin (F2, Homo sapiens, UniProt P00734)
Setting: whole 15-mer aptamer, many near background
| Modification | mean fluorescence intensity |
| --- | --- |
| 2'F-ANA at 1 3 4 7 8 12 13 | 378 a.u. |
| 2'F-ANA at 1 7 8 9 12 13 | 364 a.u. |
| 2'F-ANA at 4 7 8 10 11 15 | 88.2 a.u. |
| 2'F-ANA at 1 3 4 7 9 11 12 13 14 15 | 80.9 a.u. |
| 2'F-ANA at 1 2 5 6 7 8 10 12 13 14 15 | 75.9 a.u. |
| 2'F-ANA at 1 2 4 6 7 10 11 12 13 14 | 66.4 a.u. |
| 2'F-ANA at 1 2 6 7 12 15 | 311 a.u. |
| 2'F-ANA at 1 3 5 7 8 11 13 | 56.9 a.u. |

Series 3 — method: RNA Bind-n-Seq; molecule type: RNA; matrix: in vitro; tested at: 1 µM; setting: whole 134-nt RNA, ends assumed; added: 150 mM KCl; baseline: input library; reading: higher = stronger binding
Target: Ras GTPase-activating protein-binding protein 1, C-terminal RGG region (G3BP1, Homo sapiens, UniProt Q13283)
Sequence of UniProt Q13283 (whole entry, looked up): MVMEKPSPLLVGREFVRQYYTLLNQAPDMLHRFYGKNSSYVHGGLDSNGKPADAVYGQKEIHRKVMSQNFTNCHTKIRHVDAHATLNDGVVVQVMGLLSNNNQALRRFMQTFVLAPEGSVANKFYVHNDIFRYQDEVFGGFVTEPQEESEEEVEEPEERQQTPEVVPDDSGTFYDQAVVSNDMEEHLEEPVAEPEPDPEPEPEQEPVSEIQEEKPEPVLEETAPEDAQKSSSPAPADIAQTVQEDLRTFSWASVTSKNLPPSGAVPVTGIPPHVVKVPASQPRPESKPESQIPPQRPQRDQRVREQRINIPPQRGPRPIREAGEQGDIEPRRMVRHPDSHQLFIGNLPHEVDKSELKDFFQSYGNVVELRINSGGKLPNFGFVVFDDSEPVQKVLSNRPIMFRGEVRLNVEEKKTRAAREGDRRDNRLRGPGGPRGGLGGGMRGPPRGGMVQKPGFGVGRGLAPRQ
All sequences stand within: GGGAGUUCUACAGUCCGACGAUC … UGGAAUUCUCGGGUGUCAAGG
| Oligonucleotide | log2 enrichment |
| --- | --- |
| UGUGCUACACAUCGUAUGUACCGAAUCGGGGUUUUUUUGGGUUUUUUUGGGGUUUUUUUGGGAAAGUAUUAUGUUACGCCGUUCGGAUCU | -1.04 |
| AAGUCCUGUGCUACACAUCGUAUGUACCGAAUCGGCCCCGGGCCCCGGCCCCGGGGAAAGUAUUAUGUUACGCCGUUCGGAUCUGCACUU | -2.17 |
| UGGGAGGUGGAUUUUGUUUAUUUUUUUAGCUCAUUUCCAGGGGUGGGGAUUUUUUUUUAAUAUGUGUCAUGAAUAAAGUUGUUUUUGAAA | 2.68 |
| CUGUGCUACACAUCGUAUGUACCGAAUCGGAAAAAAAGGGGAAAAAAAGGGGAAAAAAAGGAAAGUAUUAUGUUACGCCGUUCGGAUCUG | -1.26 |
| CACAGACAACACGCACCCACAUAGACACAGAGGGAAGGGGUUGGGAUGGGGACAGGGUGCACAGCAGGGCGGGGUAGGACCCCAGCCCCU | 0.157 |
| CUGUGCUACACAUCGUAUGUACCGAAUCGGGGAAAAAAAGGGGUUUUUGGGGAAAAAGGGGAAAGUAUUAUGUUACGCCGUUCGGAUCUG | 0.0482 |

Further values, each from its own experiment
| Molecule | target | assay | system | setting | scale | quantity | result |
| --- | --- | --- | --- | --- | --- | --- | --- |
| PhoQ, residues 284 288 289 292 302 303 GASLAW | PhoP, residues 12 14 15 18 19 VQGLL (Escherichia coli, UniProt P23836) | Sort-seq, refers to: YFP reporter | E. coli | PhoQ-PhoP variant library, added: 10 µM Mg2+ | baseline: high Mg2+ state, higher = stronger signaling | fold induction | 17.5 |

A few entries again (series 2):
| Modification | mean fluorescence intensity |
| --- | --- |
| 2'F-ANA at 1 2 5 6 7 8 10 12 13 14 15 | 75.9 a.u. |
| 2'F-ANA at 1 2 4 6 7 10 11 12 13 14 | 66.4 a.u. |
